Measurements collected from several papers.
Lines come from different studies, so protocols differ. ± marks the error that the study gave. Converted amounts (≈) assume the structure as drawn.

SMILES	organism	assay	test system	conditions	scale	endpoint	value
CC[C@H](C)[C@H](NC(=O)[C@H](CCCCN)NC(=O)[C@H](CCCCN)NC(=O)[C@H](CC(C)C)NC(=O)[C@H](CCCCN)NC(=O)[C@H](CCC(=O)O)NC(=O)[C@H](CCCCN)NC(=O)[C@@H](NC(=O)[C@H](CCCCN)NC(=O)[C@H](CC(N)=O)NC(=O)[C@H](CCCNC(=N)N)NC(=O)[C@H](Cc1ccccc1)NC(=O)[C@H](CCCCN)NC(=O)[C@H](CCCNC(=N)N)NC(=O)[C@H](CC(C)C)NC(=O)[C@H](CCCNC(=N)N)NC(=O)[C@H](CCCCN)NC(=O)[C@H](CCCNC(=N)N)NC(=O)[C@@H](N)CC(C)C)[C@@H](C)CC)C(=O)NCC(=O)N[C@@H](CCC(N)=O)C(=O)N[C@@H](CCCCN)C(=O)N[C@H](C(=O)N[C@@H](CCC(N)=O)C(=O)NCC(=O)N[C@@H](Cc1ccccc1)C(=O)N[C@H](C(=O)N1CCC[C@H]1C(=O)N[C@@H](CCCCN)C(=O)N[C@@H](CC(C)C)C(=O)O)C(C)C)[C@@H](C)CC	Staphylococcus warneri	inhibition zone	ATCC 1.2824	LB agar, overnight		lethal concentration	0.78 µM
CCCCCCCC(=O)N[C@@H](CCN)C(=O)N[C@@H](CCN)C(=O)N[C@@H](CC(C)C)C(=O)N[C@@H](CC(C)C)C(=O)N[C@@H](CCN)C(=O)N[C@@H](CCN)C(=O)N[C@@H](CC(C)C)C(=O)N[C@@H](CCN)C(=O)N[C@@H](CCN)C(=O)N[C@@H](CC(C)C)C(N)=O	Staphylococcus aureus, Escherichia coli				baseline: S. aureus over E. coli	MIC ratio	1
C/C=C/c1ccc(OC(C)=O)c(OC)c1	Spodoptera frugiperda		larvae	50 µg/mL	baseline: untreated control	antifeedant index	34.5%
CC(=O)CCC1C(=O)NC(C(C)C)C(=O)NC(Cc2cc(O)cc(F)c2)C(=O)N2CCCC(N2)C(=O)OC(C(C)=CC=CC(=O)N2CCCCO2)CC=CC=CC(O)C(C)C1O (stereo not drawn)	Hepatitis C virus	viral replication, inhibitor	HCV replicon cells, D320E		baseline: wild-type replicon	fold resistance	> 2 fold
CC(=O)O[C@@H]1C[C@@H](C)O[C@H]2O[C@@H]3C[C@@H]4CC[C@@H]5[C@H](CC[C@]6(C)[C@@H](C7=CC(=O)OC7)CC[C@]56O)[C@@]4(C)C[C@H]3O[C@]21O	Schistosoma mansoni		mouse chronic infection, liver	oral, 10 mg/kg single, live worms		worm count	3 ± 4.2
CN1CCn2cc(C(=O)NCc3ccc(F)cc3F)c(=O)c(O)c2C1=O	HIV-1	single-round infection		integrase G140S/Q148H vector	baseline: cpd over cabotegravir	fold loss of potency	~4 fold
O=C1/C(=N\NC(=S)NN=Cc2cccs2)c2ccccc2N1Cc1ccccc1	herpes simplex virus 1	viral cytopathogenicity	HEL, KOS			EC50	> 20 µM
CC(C)C[C@@H]1NC(=O)[C@H](CCCCN)NC(=O)[C@H](C(C)C)NC(=O)[C@@H]2CCCN2C(=O)[C@@H](Cc2ccc(O)cc2)NC(=O)[C@H](CC(C)C)NC(=O)[C@H](CCCCN)NC(=O)[C@H](C(C)C)NC(=O)[C@@H]2CCCN2C(=O)[C@@H](Cc2ccc(O)cc2)NC1=O	Gram-negative bacteria			24 h, 7 strains		MIC geometric mean	39 µg/mL (≈ 32.5 µM)
COc1ccc(Br)cc1/C=N/NC(=O)Cn1ccc(=O)c2ccccc21	Rhizoctonia solani	microbial growth		50 µg/mL		inhibition	14.3%
COc1ccccc1-c1n[nH]c2nc(N[C@H]3CC[C@H](NS(=O)(=O)CC(C)C)CC3)ncc12	Leishmania donovani		promastigotes		baseline: wild type	fold change EC50	1
C=CCc1ccc(OCC(=C)C)c(OC)c1	Spodoptera frugiperda		larvae	500 µg/mL	baseline: untreated control	antifeedant index	66.7%
CC[C@H](C)[C@H](NC(=O)[C@H](CCC(N)=O)NC(=O)CNC(=O)[C@H](C)NC(=O)[C@@H](NC(=O)[C@H](CC(N)=O)NC(=O)[C@H](CCCNC(=N)N)NC(=O)[C@H](CC(C)C)NC(=O)[C@H](C)NC(=O)[C@H](CCC(N)=O)NC(=O)[C@H](CCCCN)NC(=O)CNC(=O)[C@H](C)NC(=O)[C@H](CCCNC(=N)N)NC(=O)[C@H](C)NC(=O)[C@H](CCCCN)NC(=O)[C@H](C)NC(=O)CNC(=O)[C@H](CC(C)C)NC(=O)[C@H](CC(C)C)NC(=O)[C@H](CCCNC(=N)N)NC(=O)[C@H](CO)NC(=O)[C@H](CC(C)C)NC(=O)[C@H](CC(C)C)NC(=O)CN)[C@@H](C)O)C(=O)N[C@@H](CCCNC(=N)N)C(=O)N[C@@H](CCCNC(=N)N)C(=O)NCC(=O)N[C@@H](CC(C)C)C(=O)N[C@@H](CC(C)C)C(=O)NCC(=O)N[C@@H](C)C(=O)N[C@@H](CCCNC(=N)N)C(=O)N[C@@H](C)C(=O)N[C@@H](C)C(=O)N1CCC[C@H]1C(=O)O	Gram-negative bacteria	MIC		concentration not given		antibacterial activity	active
CC[C@H](C)[C@H](NC(=O)[C@H](CCCCN)NC(=O)[C@H](CCCCN)NC(=O)[C@H](CC(C)C)NC(=O)[C@H](CCCCN)NC(=O)[C@H](CCC(=O)O)NC(=O)[C@H](CCCCN)NC(=O)[C@@H](NC(=O)[C@H](CCCCN)NC(=O)[C@H](CC(N)=O)NC(=O)[C@H](CCCNC(=N)N)NC(=O)[C@H](Cc1ccccc1)NC(=O)[C@H](CCCCN)NC(=O)[C@H](CCCNC(=N)N)NC(=O)[C@H](CC(C)C)NC(=O)[C@H](CCCNC(=N)N)NC(=O)[C@H](CCCCN)NC(=O)[C@H](CCCNC(=N)N)NC(=O)[C@H](CC(C)C)NC(=O)CN)[C@@H](C)CC)C(=O)NCC(=O)N[C@@H](CCC(N)=O)C(=O)N[C@@H](CCCCN)C(=O)N[C@H](C(=O)N[C@@H](CCC(N)=O)C(=O)NCC(=O)N[C@@H](Cc1ccccc1)C(=O)N[C@H](C(=O)N1CCC[C@H]1C(=O)N[C@@H](CCCCN)C(=O)N[C@@H](CC(C)C)C(=O)N[C@@H](C)C(=O)N1CCC[C@H]1C(=O)N[C@@H](CCCNC(=N)N)C(=O)N[C@H](C(=O)N[C@@H](CC(=O)O)C(=O)N[C@@H](Cc1ccc(O)cc1)C(=O)O)[C@@H](C)O)C(C)C)[C@@H](C)CC	Streptococcus salivarius	inhibition zone	ATCC 1.2498	LB agar, overnight		lethal concentration	2.25 µM
C/C=C/c1ccc(OCc2ccccc2)c(OC)c1	Spodoptera frugiperda		larvae	500 µg/mL	baseline: untreated control	antifeedant index	25.7%
C=C(C)[C@@H]1CC[C@]2(CO)CC[C@]3(C)[C@H](CC[C@@H]4[C@@]5(C)CCCNC(C)(C)[C@@H]5CC[C@]43C)[C@@H]12	Human alphaherpesvirus 1		HFF, E-377		baseline: CC50 over EC50	selectivity index	< 4
CCn1c2ccccc2c2cc(/C=N/NC(=O)Cn3ccc(=O)c4ccccc43)ccc21	Botrytis cinerea	microbial growth		50 µg/mL		inhibition	20.8%
CCC1c2cc(OC)c(O)cc2C(c2ccc(O)c(OC)c2)C1C (stereo not drawn)	Spodoptera frugiperda		larvae	100 µg/mL	baseline: untreated control	antifeedant index	11.6%
O=C(C1CCN(c2nnnn2-c2ccccc2)CC1)N1CCCc2ccccc21	Plasmodium falciparum		Dd2 PfeEF2 mutant		baseline: wild-type Dd2	IC50 fold shift	1.8 fold

Excerpt of the above:
SMILES	organism	assay	test system	conditions	scale	endpoint	value
C/C=C/c1ccc(OCc2ccccc2)c(OC)c1	Spodoptera frugiperda		larvae	500 µg/mL	baseline: untreated control	antifeedant index	25.7%
